Experimental data of several laboratories.
Numbered parts are unrelated; each lists some results of a single study. Positions count from the first letter of the parent shown.

Study 1 — technique: protein-binding microarray; molecule type: double-stranded DNA, one strand shown; matrix: in vitro; tested at: not given; reading: higher = stronger binding
Target: Myc proto-oncogene protein, bHLH-zipper, MAX partner unstated (MYC, Homo sapiens, UniProt P01106, residues 368-449)
Chain of UniProt P01106 (368-449, looked up): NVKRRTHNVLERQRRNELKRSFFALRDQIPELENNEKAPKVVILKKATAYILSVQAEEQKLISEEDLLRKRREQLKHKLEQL
Setting: k-mer, scored over probes, only values ≥0.25
| Oligonucleotide | E-score |
| --- | --- |
| CACACGGG | 0.3 |
| CCACGCCC | 0.381 |
| CCGGACAC | 0.273 |
| CAGCATGA | 0.259 |
| CCGACACG | 0.298 |
| ACGGCGTG | 0.432 |
| CGGCGTGC | 0.427 |
| CATGGTAA | 0.288 |
| CGTGCAAG | 0.285 |
| CGTGCTTA | 0.388 |
| ACCACACG | 0.392 |
| CCACGCAG | 0.378 |
| CTGCGGCC | 0.264 |
| ACGCGTCC | 0.343 |
| CGTGGTAA | 0.408 |
| ACATGTTG | 0.352 |
| CCGCGAGG | 0.365 |
| CATGTTGA | 0.299 |
| ACGTGGGA | 0.434 |
| CCAAACAC | 0.25 |
| ACGCACGG | 0.292 |
| AACATGGT | 0.252 |
| AGACACGA | 0.345 |
| ACACATGC | 0.458 |
| CGTGGAGC | 0.416 |

Study 2 — target: CCNE2, cyclin fold, Cln2 fusion (human); technique: yeast growth competition, sequencing; matrix: yeast; setting: strong parent motif; reference: not given; reading: higher = stronger binding
Starting sequence: RBL1 docking peptide (human); GSAKRRLFGEDPP; partner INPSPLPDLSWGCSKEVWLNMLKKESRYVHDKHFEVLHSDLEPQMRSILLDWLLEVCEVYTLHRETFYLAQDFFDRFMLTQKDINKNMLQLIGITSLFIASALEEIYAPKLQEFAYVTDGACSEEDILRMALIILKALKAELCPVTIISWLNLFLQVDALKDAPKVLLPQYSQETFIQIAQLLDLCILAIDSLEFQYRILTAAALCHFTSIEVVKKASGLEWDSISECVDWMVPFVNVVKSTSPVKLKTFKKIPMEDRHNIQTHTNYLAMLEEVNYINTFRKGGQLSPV
| Variant | normalised enrichment score |
| --- | --- |
| GSAKRRLFGRDPP [E10R] | 2.5 |
| GSAKRRLFGEHPP [D11H] | 3.1 |
| GSAKRRLFGEDYP [P12Y] | 4.29 |
| GSAKRRWFGEDPP [L7W] | 0.921 |
| GSAKRRLFGEDPG [P13G] | 3.69 |
| GSAKRRIFGEDPP [L7I] | 1.8 |
| GSAKRRLFGPDPP [E10P] | 4.26 |
| GSADRRLFGEDPP [K4D] | -0.0642 |
| GSAKRRRFGEDPP [L7R] | 0.911 |
| GSACRRLFGEDPP [K4C] | 3.58 |
| GSAARRLFGEDPP [K4A] | 1.43 |
| GSAKRRGFGEDPP [L7G] | -0.261 |
| GSAKRRLFGEDLP [P12L] | 3.8 |
| GSAKRRLRGEDPP [F8R] | -0.133 |
| GSAKRRLFGKDPP [E10K] | 2.45 |
| GSAKRRLFNEDPP [G9N] | 4.85 |
| GSAKRRLFGLDPP [E10L] | 3.33 |
| GSVKRRLFGEDPP [A3V] | 6.37 |
| GSAKRRLFWEDPP [G9W] | 5.02 |
| DSAKRRLFGEDPP [G1D] | 4.29 |

Study 3 — technique: competition protein-binding microarray; molecule type: double-stranded DNA, one strand shown; matrix: in vitro; tested at: 2 µM; together with: Pho4 competitor, 0.05 µM; reading: higher = stronger binding; all sequences stand within: … GTCTTGATTCGCTTGACGCTGCTG
Target: Centromere-binding protein 1, full length, His-tagged (CBF1, Saccharomyces cerevisiae, UniProt P17106, residues 1-351)
Chain of UniProt P17106 (whole entry, looked up): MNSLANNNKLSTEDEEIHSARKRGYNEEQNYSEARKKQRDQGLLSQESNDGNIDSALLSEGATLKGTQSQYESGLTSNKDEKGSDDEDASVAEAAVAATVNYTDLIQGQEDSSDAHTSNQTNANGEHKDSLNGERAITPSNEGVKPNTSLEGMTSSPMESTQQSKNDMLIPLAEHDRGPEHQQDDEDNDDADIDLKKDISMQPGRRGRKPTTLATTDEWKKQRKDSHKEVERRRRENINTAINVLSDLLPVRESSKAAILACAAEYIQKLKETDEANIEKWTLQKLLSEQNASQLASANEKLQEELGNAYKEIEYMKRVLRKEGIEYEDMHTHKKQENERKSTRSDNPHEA
Setting: whole 60-bp probe, lowest competitor level
| Oligonucleotide | fluorescence intensity |
| --- | --- |
| TAAACAAGTCTCTTACACGTGAAGCACCTACCCCAA | 550 a.u. |
| CAAGGGCGCCCCGGCCACGTGGAATAATACTGACTT | 604 a.u. |
| CTAACGAAGGTTTGCAAGGTGGGTGACAAGCCAAGT | 69.6 a.u. |
| AGTCTTGATTTCTTGCGCATGACGGATTAAATTCTT | 155 a.u. |
| AAGCTACATATAAGGAACGTGCTTTTACTCATCCTA | 127 a.u. |
| GCAAAAAAAGCCCATCACGTGATGGGGAAGATTTCA | 8880 a.u. |
| CTTTCCCGATCTTTTCACGTGCGTTTAGCACATTTG | 662 a.u. |
| AAAGCGGTAATTTGTACCGTGGGTGCAGATATCTAT | 59.1 a.u. |
| AAAGCGGTAATTTTTCACGTGCTGTCAAATATCTAT | 1850 a.u. |
| CGGGGTTAAGTTTGTATGGTGGGTGGCTTGCAGCAG | 52.1 a.u. |
| ATACTTGCATTCGACCACGTGCTTTGGCATGTATCT | 2290 a.u. |
| CGTCCTAGTGATTGTGTCGTGGGTGCCATGAGGAAG | 74.8 a.u. |
| GGCCATCCGCTCCGTCACGGGCCAATCGAAGCTCTT | 106 a.u. |
| CTAACGAAGGTTTGCACGGTGGGTGACAAGCCAAGT | 68.8 a.u. |
| AACTATGAGTACAGGCATGTGATGTTACCTAAGGCC | 393 a.u. |
| GAGATCCAGATGTCGCACGTGACCTAAGTGAGACTG | 7830 a.u. |
| CGGGGTTAAGTTTTTCACGTGTGGTGCTTGCAGCAG | 425 a.u. |
| CATACCCAACCTTGTGGGGTGGGTGAAGATATTTGT | 72.4 a.u. |
| CTTCTGTAAATTTGACAGGTGGGTGGACGCGCCCCG | 71.1 a.u. |

Study 4 — technique: RNA Bind-n-Seq; molecule type: RNA; matrix: in vitro; tested at: not given; setting: RNA with constant flanks, ends assumed; reference: input RNA pool; reading: higher = stronger binding
Target: RING finger protein unkempt homolog, zinc fingers 1-6, GST-SBP tag (UNK, Homo sapiens, UniProt Q9C0B0, residues 30-357)
Chain of UniProt Q9C0B0 (30-357, looked up): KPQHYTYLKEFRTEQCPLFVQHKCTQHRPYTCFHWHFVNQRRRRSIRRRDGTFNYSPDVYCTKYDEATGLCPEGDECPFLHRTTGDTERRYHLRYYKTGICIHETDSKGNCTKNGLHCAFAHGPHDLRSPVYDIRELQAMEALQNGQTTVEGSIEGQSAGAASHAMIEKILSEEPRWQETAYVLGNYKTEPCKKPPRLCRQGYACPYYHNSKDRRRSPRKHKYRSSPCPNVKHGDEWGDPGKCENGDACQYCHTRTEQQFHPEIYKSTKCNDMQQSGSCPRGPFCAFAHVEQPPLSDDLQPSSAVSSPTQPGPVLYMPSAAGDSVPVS
All sequences stand within: GGGAGUUCUACAGUCCGACGAUC … CAACAGAGGAUUGAGCAUCA
| Oligonucleotide | bound/input enrichment [ratio] |
| --- | --- |
| GAUGAACUUCAUGAUCAUGGAGUUUCAAGCCUGAGUGUGAAGAUUAGAGUAAUGCCUUCCCGCUUUUUCCUGCUGUUGCGGUUUUUCUUGAGAAUUGAUGGGGUGCUUAUCAGAAUGAAU | 0.698 |
| CCUCGUCCGGUGAUGACAUCAGAGGAUAGUGGCUUGUUCAGCCCUAUUCGAACCUCAGCUUUCCGUCCUCCUGGAAGCUGUACUCCUGCUGAAUGGUUUUGCCAAACAGAUACUAGUGAA | 0.304 |
| UCCAAUUCAAACUAUAGUACUGUGUAAUUAUGUAUAAAGGUUUUUUUAUUUAUUUGAAAUCCGGUCCGAUAUACAUUUUUAAAUUUAACAUCUGGCUGGACAGUGUUCUAUUAACUCAUU | 4.27 |
| AUUGAUUUGCUUUACAAUCAUCCACACUGUGUUUUGUGGAUCUUUAAUUAUAUAUAACAACCGCCGUCAUUUUAAAUAUAUAUUCUGAAAUCUUUGCAAAUUUUAACAGAAGAGUCGAAG | 0.684 |
| UUAUUUUUAAGAAGAUGCCAAUAUAAUUUUUGUAAGAAGGCAGUAACCUUUCAUCAUGAUCACCGGCAGUUGAAAAAUUUUUACACCUUUUUUUUCACAUUUUACAUAAAUAAUAAUGCU | 3.57 |
| UAAUUAUUCACCUUUAGCUUUUGUCUCUUGUGCAUGCUAUCACAGUUUUGCUUGUAUUUUCCGCAUAUGAACAUUUAUAAAGUCACUUUUUUUGUUACUGCAAUUUUGUCUGAUUUAUCC | 3.36 |
| GUCAGGGUCGCCAGCGCCUCAGCUCUGUGGAGGAGCAGCAGUAGUCGGAGGGUGCAGGAUAUCCGAAAUGGCUACUCCCCAGUCAAUUUUCAUCUUUGCAAUCUGCAUUUUAAUGAUAAC | 0.234 |
| AAGCAGCAAACAGAAAGGGUUACAAAAGAGAUGAAUGAAUUUAUUCACAGAGAGCAAAACCGUUUAUCACUUCUAGAAGCAAGUGAAGCCGACCGUGAUGCGGUCAAUGACAAGAAAAGA | 0.321 |

A few entries again (study 3):
| Oligonucleotide | fluorescence intensity |
| --- | --- |
| AAGCTACATATAAGGAACGTGCTTTTACTCATCCTA | 127 a.u. |
| GCAAAAAAAGCCCATCACGTGATGGGGAAGATTTCA | 8880 a.u. |
| CTTTCCCGATCTTTTCACGTGCGTTTAGCACATTTG | 662 a.u. |
| AAAGCGGTAATTTGTACCGTGGGTGCAGATATCTAT | 59.1 a.u. |
| AAAGCGGTAATTTTTCACGTGCTGTCAAATATCTAT | 1850 a.u. |
| CGGGGTTAAGTTTGTATGGTGGGTGGCTTGCAGCAG | 52.1 a.u. |
| ATACTTGCATTCGACCACGTGCTTTGGCATGTATCT | 2290 a.u. |
| CGTCCTAGTGATTGTGTCGTGGGTGCCATGAGGAAG | 74.8 a.u. |
| GGCCATCCGCTCCGTCACGGGCCAATCGAAGCTCTT | 106 a.u. |
